Assay results pooled from the literature.
Protocols differ between the studies behind these lines. “And” joins repeats or separate records; there may be more than shown.
CA12: Carbonic anhydrase 12 (CA12, Homo sapiens, UniProt O43570)
Chain of UniProt O43570 (whole entry, looked up): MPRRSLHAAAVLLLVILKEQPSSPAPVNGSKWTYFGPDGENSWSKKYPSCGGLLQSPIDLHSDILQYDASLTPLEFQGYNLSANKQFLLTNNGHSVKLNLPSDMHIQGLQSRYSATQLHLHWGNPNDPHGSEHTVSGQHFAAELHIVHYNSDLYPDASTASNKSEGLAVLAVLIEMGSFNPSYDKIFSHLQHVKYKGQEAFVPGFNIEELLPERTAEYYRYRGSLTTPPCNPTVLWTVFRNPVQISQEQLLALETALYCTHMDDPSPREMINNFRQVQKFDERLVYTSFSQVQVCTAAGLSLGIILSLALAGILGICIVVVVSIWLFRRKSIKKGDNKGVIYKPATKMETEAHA
TMEM97: Sigma intracellular receptor 2 (TMEM97, Homo sapiens, UniProt Q5BJF2)
Chain of UniProt Q5BJF2 (whole entry, looked up): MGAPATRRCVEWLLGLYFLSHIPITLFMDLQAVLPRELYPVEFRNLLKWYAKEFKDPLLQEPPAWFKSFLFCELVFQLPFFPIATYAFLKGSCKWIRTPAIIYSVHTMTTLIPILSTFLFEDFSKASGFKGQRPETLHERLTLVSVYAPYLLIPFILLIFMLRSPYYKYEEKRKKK
TMPRSS13: TMPRSS13 (Homo sapiens, UniProt Q9BYE2)
Chain of UniProt Q9BYE2 (whole entry, looked up): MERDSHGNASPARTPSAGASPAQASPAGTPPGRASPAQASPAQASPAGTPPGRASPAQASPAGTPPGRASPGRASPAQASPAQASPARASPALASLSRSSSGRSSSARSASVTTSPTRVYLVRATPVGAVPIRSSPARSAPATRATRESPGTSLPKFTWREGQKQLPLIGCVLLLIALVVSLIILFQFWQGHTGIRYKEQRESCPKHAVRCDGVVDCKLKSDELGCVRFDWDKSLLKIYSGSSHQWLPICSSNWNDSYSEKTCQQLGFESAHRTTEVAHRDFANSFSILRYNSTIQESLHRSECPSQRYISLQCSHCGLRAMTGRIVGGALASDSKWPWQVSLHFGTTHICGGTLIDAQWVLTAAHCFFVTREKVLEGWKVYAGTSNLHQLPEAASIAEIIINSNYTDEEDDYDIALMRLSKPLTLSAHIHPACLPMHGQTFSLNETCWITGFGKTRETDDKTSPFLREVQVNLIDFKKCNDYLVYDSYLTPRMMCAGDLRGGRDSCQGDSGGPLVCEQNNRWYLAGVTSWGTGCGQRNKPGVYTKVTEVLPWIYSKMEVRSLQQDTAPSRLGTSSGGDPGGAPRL
Chain of UniProt P00747 (whole entry, looked up): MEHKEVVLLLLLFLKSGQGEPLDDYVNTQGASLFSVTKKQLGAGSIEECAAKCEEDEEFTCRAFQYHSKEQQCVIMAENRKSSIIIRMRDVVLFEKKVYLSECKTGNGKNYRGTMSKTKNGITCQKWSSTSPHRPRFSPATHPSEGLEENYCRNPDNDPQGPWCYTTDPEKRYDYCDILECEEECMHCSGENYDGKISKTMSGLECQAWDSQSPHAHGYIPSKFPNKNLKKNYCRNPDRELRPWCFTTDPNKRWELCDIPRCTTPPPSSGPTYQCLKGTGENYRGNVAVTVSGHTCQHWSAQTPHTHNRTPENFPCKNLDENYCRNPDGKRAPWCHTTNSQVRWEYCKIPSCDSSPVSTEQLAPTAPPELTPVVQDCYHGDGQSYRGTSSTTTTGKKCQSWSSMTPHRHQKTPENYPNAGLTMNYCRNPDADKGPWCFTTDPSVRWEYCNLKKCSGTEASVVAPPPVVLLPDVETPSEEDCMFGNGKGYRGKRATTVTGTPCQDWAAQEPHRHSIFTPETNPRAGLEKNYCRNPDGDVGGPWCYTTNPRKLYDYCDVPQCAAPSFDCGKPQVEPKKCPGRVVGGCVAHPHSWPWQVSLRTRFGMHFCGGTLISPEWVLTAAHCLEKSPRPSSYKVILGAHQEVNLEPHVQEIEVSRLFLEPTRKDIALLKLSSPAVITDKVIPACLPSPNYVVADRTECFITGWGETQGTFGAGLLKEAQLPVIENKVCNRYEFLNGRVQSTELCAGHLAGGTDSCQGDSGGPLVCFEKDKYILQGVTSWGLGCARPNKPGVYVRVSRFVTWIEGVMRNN
Chain of UniProt P22303 (whole entry, looked up): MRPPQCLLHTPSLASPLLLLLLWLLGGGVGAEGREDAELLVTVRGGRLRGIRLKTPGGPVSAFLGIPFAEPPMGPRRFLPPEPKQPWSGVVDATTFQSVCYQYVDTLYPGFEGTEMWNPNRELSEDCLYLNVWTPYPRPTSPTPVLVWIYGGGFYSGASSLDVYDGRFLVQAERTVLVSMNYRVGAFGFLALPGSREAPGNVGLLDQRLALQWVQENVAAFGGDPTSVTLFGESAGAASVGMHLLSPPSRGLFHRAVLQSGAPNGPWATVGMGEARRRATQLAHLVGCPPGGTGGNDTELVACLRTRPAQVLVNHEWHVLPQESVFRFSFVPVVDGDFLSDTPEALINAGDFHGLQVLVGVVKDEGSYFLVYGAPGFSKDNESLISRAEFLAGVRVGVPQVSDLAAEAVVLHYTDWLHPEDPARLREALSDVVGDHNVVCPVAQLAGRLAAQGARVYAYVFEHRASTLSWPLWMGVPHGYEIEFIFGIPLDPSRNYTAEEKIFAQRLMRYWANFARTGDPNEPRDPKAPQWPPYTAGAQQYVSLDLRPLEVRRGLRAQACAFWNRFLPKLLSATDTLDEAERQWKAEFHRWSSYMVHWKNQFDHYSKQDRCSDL
Chain of UniProt Q15375 (whole entry, looked up): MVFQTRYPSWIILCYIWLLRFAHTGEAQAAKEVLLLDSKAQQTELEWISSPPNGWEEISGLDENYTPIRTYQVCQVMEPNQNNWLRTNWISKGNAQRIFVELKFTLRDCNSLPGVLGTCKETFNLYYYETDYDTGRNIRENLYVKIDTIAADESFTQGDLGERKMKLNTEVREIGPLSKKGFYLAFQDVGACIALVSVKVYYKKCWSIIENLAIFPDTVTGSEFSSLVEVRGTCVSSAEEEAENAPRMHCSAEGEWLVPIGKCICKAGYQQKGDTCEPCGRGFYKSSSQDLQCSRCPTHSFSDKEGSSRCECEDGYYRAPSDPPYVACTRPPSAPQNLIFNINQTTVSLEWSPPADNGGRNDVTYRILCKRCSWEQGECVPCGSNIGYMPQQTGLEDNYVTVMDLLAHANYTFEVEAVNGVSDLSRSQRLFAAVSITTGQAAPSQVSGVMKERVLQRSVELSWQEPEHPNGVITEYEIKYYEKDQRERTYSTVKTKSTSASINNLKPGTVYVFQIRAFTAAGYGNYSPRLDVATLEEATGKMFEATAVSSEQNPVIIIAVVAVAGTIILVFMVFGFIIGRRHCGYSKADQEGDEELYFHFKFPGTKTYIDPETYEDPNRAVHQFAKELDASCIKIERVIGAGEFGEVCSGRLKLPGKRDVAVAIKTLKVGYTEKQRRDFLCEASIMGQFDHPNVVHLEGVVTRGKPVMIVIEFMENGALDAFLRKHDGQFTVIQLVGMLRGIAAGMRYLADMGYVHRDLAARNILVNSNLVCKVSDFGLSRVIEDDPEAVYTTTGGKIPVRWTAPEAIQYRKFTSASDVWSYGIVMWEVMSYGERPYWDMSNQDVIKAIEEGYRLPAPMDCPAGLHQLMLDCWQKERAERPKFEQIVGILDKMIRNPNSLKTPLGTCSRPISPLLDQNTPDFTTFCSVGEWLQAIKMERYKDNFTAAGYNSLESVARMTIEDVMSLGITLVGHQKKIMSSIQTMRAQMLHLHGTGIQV
Chain of UniProt P60651 (whole entry, looked up): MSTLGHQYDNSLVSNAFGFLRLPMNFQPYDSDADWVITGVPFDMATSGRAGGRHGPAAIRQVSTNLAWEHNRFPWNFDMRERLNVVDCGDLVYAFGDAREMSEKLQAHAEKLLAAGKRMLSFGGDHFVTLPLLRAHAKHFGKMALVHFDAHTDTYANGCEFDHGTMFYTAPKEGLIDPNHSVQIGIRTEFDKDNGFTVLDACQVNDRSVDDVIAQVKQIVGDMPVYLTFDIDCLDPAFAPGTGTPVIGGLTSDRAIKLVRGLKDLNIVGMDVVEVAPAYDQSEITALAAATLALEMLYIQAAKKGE
Chain of UniProt P07711 (whole entry, looked up): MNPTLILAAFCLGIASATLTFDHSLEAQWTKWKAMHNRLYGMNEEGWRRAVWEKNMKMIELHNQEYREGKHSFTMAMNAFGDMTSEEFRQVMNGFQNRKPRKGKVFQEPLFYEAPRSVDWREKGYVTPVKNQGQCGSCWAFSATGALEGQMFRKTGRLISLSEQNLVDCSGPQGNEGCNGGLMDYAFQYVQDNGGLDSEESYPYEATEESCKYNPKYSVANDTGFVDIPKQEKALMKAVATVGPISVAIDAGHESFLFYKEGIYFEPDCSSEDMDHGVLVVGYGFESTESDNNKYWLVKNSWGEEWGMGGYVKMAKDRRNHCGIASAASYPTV
Chain of UniProt P28335 (whole entry, looked up): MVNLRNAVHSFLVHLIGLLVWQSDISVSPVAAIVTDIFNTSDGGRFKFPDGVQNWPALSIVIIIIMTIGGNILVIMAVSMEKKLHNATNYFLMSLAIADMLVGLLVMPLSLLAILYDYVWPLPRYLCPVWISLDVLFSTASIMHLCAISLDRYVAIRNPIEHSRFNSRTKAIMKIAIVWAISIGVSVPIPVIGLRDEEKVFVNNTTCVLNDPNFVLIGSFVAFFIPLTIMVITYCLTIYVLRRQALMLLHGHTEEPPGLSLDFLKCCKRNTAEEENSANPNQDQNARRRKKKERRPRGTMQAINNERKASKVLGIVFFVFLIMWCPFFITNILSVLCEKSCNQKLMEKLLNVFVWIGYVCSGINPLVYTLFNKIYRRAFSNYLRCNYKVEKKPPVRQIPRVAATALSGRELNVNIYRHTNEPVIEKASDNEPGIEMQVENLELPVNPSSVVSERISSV

O=C(Nc1ccc2c(c1)C=CCP(=O)(O)O2)c1ccc(Cl)cc1 — Ki (CA12; enzyme activity, inhibitor, stopped-flow): 64.1 nM
CC(C)(C)[C@H](NC(=O)[C@H](CCCNC(=N)N)NC(=O)Cc1ccc(CNC(=N)N)cc1)C(=O)N[C@@H](CCCCN)C(=O)NCc1ccc(C(=N)N)cc1 — Ki (Plasminogen, trypsin-like site (PLG, Homo sapiens, UniProt P00747); enzyme activity, inhibitor; pH 8): 8800 nM and > 3000 nM
CN[C@H]1CC[C@@H](c2ccc(Cl)c(Cl)c2)c2ccccc21 — Ki (TMEM97; ligand displacement, radioligand): 2030 nM
C[C@H](NC(=O)[C@H](CCC(N)=O)NC(=O)CCCCNC(=N)N)C(=O)N[C@@H](CCCNC(=N)N)C(=O)c1nc2ccccc2s1 — Ki (Procathepsin L (CTSL, Homo sapiens, UniProt P07711); cell-free assay): > 10000 nM
O=C(Nc1ccc2c(c1)C=CCP(=O)(O)O2)c1ccco1 — Ki (CA12; enzyme activity, inhibitor, stopped-flow): 9.7 nM
Cc1cc(=O)oc2c1ccc1oc(C(O)c3ccc(Cl)cc3)c(C)c12 (centres unmarked) — IC50 (PFF0160c (Plasmodium falciparum, UniProt Q08210); enzyme activity, inhibitor, absorbance): 325 nM
CN1CCN(CCc2ccc(Cl)c(Cl)c2)CC1 — Ki (TMEM97; ligand displacement, radioligand): 354 nM
O=C(Nc1ccc(Cl)cc1)Nc1ccc2c(c1)C=CCP(=O)(O)O2 — Ki (CA12; enzyme activity, inhibitor, stopped-flow): > 10000 nM
CC(C)c1cc2c(c(O)c1O)[C@@]13CCCC(C)(C)[C@@H]1[C@@H](O)[C@@H]2OC3=O — Ki (ACHE (Homo sapiens, UniProt P22303); enzyme activity, inhibitor): 1.68 nM
CCOC(=O)N[C@@H](CCCNC(=N)N)C(=O)N[C@@H](CCC(N)=O)C(=O)N[C@@H](Cc1ccccc1)C(=O)N[C@@H](CCCNC(=N)N)C(=O)c1nc2ccccc2s1 — Ki (TMPRSS13; cell-free assay): 12 nM
O=C(Nc1ccc(I)cc1)Nc1ccc2c(c1)C=CCP(=O)(O)O2 — Ki (CA2 (Homo sapiens, UniProt P00918); enzyme activity, inhibitor, stopped-flow): > 10000 nM
N=C(N)NCCC[C@H](NC(=O)[C@H](Cc1ccccc1)NC(=O)[C@H](CCC(N)=O)NC(=O)OCc1ccccc1)C(=O)c1nccs1 — Ki (TMPRSS13; cell-free assay): 90 nM
Cc1nccn1CC1CCc2c(c3ccccc3n2C)C1=O (centres unmarked) — Ki (TMEM97; ligand displacement, radioligand): > 10000 nM
CC(C)=CCN=C(N)N — Ki (speB (Escherichia coli, UniProt P60651); enzyme activity, inhibitor, absorbance; pH 6.5): 8030 nM
CN(C)CCOC(c1ccccc1)c1ccccc1 — Ki (TMEM97; ligand displacement, radioligand): 2000 nM
CC(C)[C@@H](Nc1nc(Cl)nc2c1ncn2[C@H]1[C@H](O)[C@H](O)[C@]2(CN=[N+]=[N-])C[C@H]12)C1CC1 — Ki (HTR2C (Homo sapiens, UniProt P28335); ligand displacement, radioligand): 2910 nM
O=C(Nc1ccc2c(c1)C=CCP(=O)(O)O2)c1ccccc1Br — Ki (CA12; enzyme activity, inhibitor, stopped-flow): 8.9 nM
Cc1c(C(=O)Nc2cc(Cl)cc(Cl)c2)cccc1[N+](=O)[O-] — IC50 (PFF0160c (Plasmodium falciparum, UniProt Q08210, E182D); enzyme activity, inhibitor, absorbance): > 10000 nM
Fc1ccc(C(OCCN2CCN(CCCc3ccccc3)CC2)c2ccc(F)cc2)cc1 — Ki (TMEM97; ligand displacement, radioligand): 199 nM
[2H]c1c([2H])c([C@]2([2H])CCCN2C(=O)C(C)(C)Oc2ccc3cn[nH]c3c2)c([2H])c([2H])c1C([2H])([2H])[2H] — remaining binding (EPHA7 (Homo sapiens, UniProt Q15375); binding, competition with immobilised ligand; 1 µM): 72%

Excerpt of the above:
N=C(N)NCCC[C@H](NC(=O)[C@H](Cc1ccccc1)NC(=O)[C@H](CCC(N)=O)NC(=O)OCc1ccccc1)C(=O)c1nccs1 — Ki (TMPRSS13; cell-free assay): 90 nM
Fc1ccc(C(OCCN2CCN(CCCc3ccccc3)CC2)c2ccc(F)cc2)cc1 — Ki (TMEM97; ligand displacement, radioligand): 199 nM
CCOC(=O)N[C@@H](CCCNC(=N)N)C(=O)N[C@@H](CCC(N)=O)C(=O)N[C@@H](Cc1ccccc1)C(=O)N[C@@H](CCCNC(=N)N)C(=O)c1nc2ccccc2s1 — Ki (TMPRSS13; cell-free assay): 12 nM
